Published values of several laboratories.
Every numbered part comes from another study and shows a few of its results, in no order.
Chain of UniProt P35372 (whole entry, looked up): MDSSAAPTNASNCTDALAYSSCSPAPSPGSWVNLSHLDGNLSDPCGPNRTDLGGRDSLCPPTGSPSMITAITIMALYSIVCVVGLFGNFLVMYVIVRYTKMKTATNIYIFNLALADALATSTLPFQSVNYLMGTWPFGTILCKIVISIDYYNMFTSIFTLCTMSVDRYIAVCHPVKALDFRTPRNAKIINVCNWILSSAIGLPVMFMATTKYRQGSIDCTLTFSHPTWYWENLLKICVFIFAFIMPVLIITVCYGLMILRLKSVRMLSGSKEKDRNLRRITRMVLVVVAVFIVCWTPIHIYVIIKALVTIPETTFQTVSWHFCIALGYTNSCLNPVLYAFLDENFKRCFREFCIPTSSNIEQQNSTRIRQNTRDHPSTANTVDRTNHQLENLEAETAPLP

Block 1
Cell line: HaCaT
Concentration: 100 µM
Time: 60 h
Structure (SMILES) | viability [%]
CC(C)[C@H](N)C(=O)OCCOCn1cnc2c(=O)[nH]c(N)nc21 | 149
Cc1ccc(S(=O)(=O)NC(=O)NN2CC3CCC[C@@H]3C2)cc1 (stereo in doubt) | 134
OCCN1C[C@H](O)[C@@H](O)[C@H](O)[C@H]1CO | 131
CC[C@@H]1/C=C(\C)C[C@H](C)C[C@H](OC)[C@H]2O[C@@](O)(C(=O)C(=O)N3CCCC[C@H]3C(=O)O[C@H](/C(C)=C/[C@@H]3CC[C@H](Cl)[C@H](OC)C3)[C@H](C)[C@@H](O)CC1=O)[C@H](C)C[C@@H]2OC | 47.6
CC1CNc2c(cccc2S(=O)(=O)N[C@@H](CCCNC(=N)N)C(=O)N2CC[C@@H](C)C[C@@H]2C(=O)O)C1 (some centres unmarked) | 146

Block 2
Structure (SMILES): C[C@@H]1OCC2(CCN(c3cnc(Sc4ccnc(N)c4Cl)c(N)n3)CC2)[C@@H]1N
Technique: immunoblot
Relative to: DMSO
cell line | conditions | phospho-ERK level [%]
Ba/F3 KRAS G12D | 1 µM | 60
Ba/F3 NRAS G12D | 0.1 µM | 98
Ba/F3 KRAS G12D | 0.1 µM | 79
Ba/F3 NRAS G12D | 1 µM | 65

Mixed results
Molecule | target | assay | test system | conditions | scale | endpoint | result
DAVEDFLAF | HLA class I histocompatibility antigen, A alpha chain, allele A*80:01 (Homo sapiens, UniProt P04439) | peptide-MHC binding | peptide | – | direction not given | z-score of log IC50 | 0.38
CNC(=N)NCCC[C@H](NC(=O)[C@H](CC(C)C)NC(=O)NNC(=O)[C@H](Cc1ccccc1)NC(=O)[C@H](CO)NC(=O)[C@H](CC(N)=O)NC(=O)[C@@H](Cc1ccncc1)NC(=O)[C@H](N)Cc1ccc(O)cc1)C(=O)N[C@@H](Cc1ccccc1)C(N)=O | OPRM1 (Homo sapiens, UniProt P35372) | ligand displacement | – | 10 µM | – | inhibition | -4.62%
